Measured values collected from several papers.
Parts stem from different laboratories: compare values within a part only.

Series 1
Target: Prothrombin, mature alpha-thrombin (F2, Homo sapiens, UniProt P00734)
Method: aptamer microarray, sandwich
Molecule type: DNA with 2'F-ANA
Sample: in vitro
Concentration: 200 nM
Notes: whole 15-mer aptamer, many near background
Together with: Cy3 exosite-II aptamer, 400 nM
Reading: higher = stronger binding
Oligonucleotide: GGTTGGTGTGGTTGG
For `2'F-ANA at 6 8 9 10`, “mean fluorescence intensity” read 179 a.u.
For `2'F-ANA at 1 3 4 5 7 10 11 12 14 15`, “mean fluorescence intensity” read 52.1 a.u.
For `2'F-ANA at 3 4 5 6 8 10 12 14`, “mean fluorescence intensity” read 53.8 a.u.
Under “mean fluorescence intensity”, `2'F-ANA at 2 3 4 5 10 11 12 13 15` is recorded as 74.4 a.u.
`2'F-ANA at 3 4 5 6 7 9 11 12 13 15` — result for “mean fluorescence intensity”: 88.6 a.u.

Series 2
Target: Interferon regulatory factor 5, full length, phosphomimetic (IRF5, Homo sapiens, UniProt Q13568-2, residues 1-514, S451D/S453D/S456D/S462D)
Method: protein-binding microarray
Molecule type: double-stranded DNA, one strand shown
Sample: in vitro
Concentration: 940 nM top
Notes: 60-bp whole probe
Together with: salmon DNA 0.4 mg/ml
Baseline: random background probes
Reading: higher = stronger binding
All sequences stand within: GCCTAGCAC … GTCTTGATTCGCTTGACGCTGCTG
Under “fitted relative affinity”, `TCAGACTTTGGTTTGTAACTGTGCTAG` is recorded as 0.00506 z-score.
Under “fitted relative affinity”, `TTAGGTTTCCTTCTCGTTTAGTGCTAG` is recorded as 2.21 z-score.
For `CTGGCTATTTTATATGCTATGGTGCTA`, “fitted relative affinity” read -0.0863 z-score.
`GATTCTTTCGATGCTAAACGAGTGCTA`: “fitted relative affinity” 3.13 z-score.
For `GTCAAACTCACTCATGGCTTTGTGCTA`, “fitted relative affinity” read 0.00296 z-score.
`TTAGGTATCGTTTTCGGTTAGTGCTAG` — result for “fitted relative affinity”: 6.65 z-score.
For `TCAACACTAATTTTTACACTGTGCTAG`, “fitted relative affinity” read 0.497 z-score.
Under “fitted relative affinity”, `GACGATATCGGACTGGAGACGTGCTAG` is recorded as -0.0918 z-score.

Series 3
Target: Sal-like protein 4, full length isoform B (SALL4, Homo sapiens, UniProt Q9UJQ4-2, residues 1-616)
Method: universal PBM
Molecule type: double-stranded DNA, one strand shown
Sample: in vitro
Concentration: not given
Notes: 8-mer, flanks averaged, mean of replicates
Reading: higher = stronger binding
Target sequence (chain): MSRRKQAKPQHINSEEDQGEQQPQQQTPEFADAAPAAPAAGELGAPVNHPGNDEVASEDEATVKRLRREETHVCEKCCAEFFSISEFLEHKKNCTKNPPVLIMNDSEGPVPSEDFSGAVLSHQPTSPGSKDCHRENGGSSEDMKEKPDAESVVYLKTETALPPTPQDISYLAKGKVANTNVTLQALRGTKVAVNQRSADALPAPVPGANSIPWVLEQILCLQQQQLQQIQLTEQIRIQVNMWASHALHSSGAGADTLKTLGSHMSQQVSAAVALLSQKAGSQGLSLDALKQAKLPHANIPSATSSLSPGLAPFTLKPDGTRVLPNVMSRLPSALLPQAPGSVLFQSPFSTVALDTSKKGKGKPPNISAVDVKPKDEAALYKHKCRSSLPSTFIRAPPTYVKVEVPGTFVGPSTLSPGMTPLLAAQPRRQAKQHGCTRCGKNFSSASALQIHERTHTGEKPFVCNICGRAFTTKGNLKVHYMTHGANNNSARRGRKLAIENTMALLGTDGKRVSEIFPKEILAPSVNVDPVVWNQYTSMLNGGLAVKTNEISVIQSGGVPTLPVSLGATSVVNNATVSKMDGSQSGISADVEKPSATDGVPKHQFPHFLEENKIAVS
The E-score of `GTAGAGTA` is reported as 0.121.
The E-score of `AGCTGGGA` is reported as -0.211.
`AAGCAGCG` gave an E-score of -0.151.
`GAACGTCA` has an E-score of 0.0513.
The E-score of `AAGTTTAA` is reported as 0.15.
With `ATCCGACC` the E-score was -0.0669.
`CATCTTCC` has an E-score of 0.083.
`CATCTCGC` gave an E-score of -0.25.
With `ATGCCTGG` the E-score was -0.127.
With `ATGGTCAG` the E-score was 0.184.

Other studies, line by line
With `PhoQ, residues 284 288 289 292 302 303 GTAMQF` the fold induction was 2.33 (PhoP, residues 12 14 15 18 19 VHSCL (Escherichia coli, UniProt P23836); Sort-seq, refers to: YFP reporter; E. coli; PhoQ-PhoP variant library, together with: 10 µM Mg2+; baseline: high Mg2+ state, higher = stronger signaling).

Excerpt of the above (series 3):
With `ATGCCTGG` the E-score was -0.127.
`AAGCAGCG` gave an E-score of -0.151.
The E-score of `GTAGAGTA` is reported as 0.121.
`CATCTCGC` gave an E-score of -0.25.
